Assay results collected from several papers.
Compare with care: the assays were run in different laboratories. Numbers after ± are the reported error.
OPRL1: Nociceptin receptor (OPRL1, Homo sapiens, UniProt P41146)
Secreted effector protein C403A/D356A: Secreted effector protein (Yersinia pestis, UniProt O68720, C403A/D356A)

Chains of the proteins cited; added tags and fusions are not shown. A line that says so, or that is headed by a name, gives the form on record, which may keep a tag or linker. Residues count along the entry.
UniProt P41146, whole entry: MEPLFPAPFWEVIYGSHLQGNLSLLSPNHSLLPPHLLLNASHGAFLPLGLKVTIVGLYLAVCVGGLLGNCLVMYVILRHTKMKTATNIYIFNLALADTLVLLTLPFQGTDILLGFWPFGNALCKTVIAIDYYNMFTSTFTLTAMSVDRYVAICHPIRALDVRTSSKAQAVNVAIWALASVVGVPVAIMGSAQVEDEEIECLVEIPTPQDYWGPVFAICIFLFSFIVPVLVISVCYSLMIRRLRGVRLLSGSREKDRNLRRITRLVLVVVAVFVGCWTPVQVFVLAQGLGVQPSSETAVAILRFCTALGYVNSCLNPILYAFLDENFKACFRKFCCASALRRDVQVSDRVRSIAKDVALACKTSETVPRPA
UniProt P22303, whole entry, looked up: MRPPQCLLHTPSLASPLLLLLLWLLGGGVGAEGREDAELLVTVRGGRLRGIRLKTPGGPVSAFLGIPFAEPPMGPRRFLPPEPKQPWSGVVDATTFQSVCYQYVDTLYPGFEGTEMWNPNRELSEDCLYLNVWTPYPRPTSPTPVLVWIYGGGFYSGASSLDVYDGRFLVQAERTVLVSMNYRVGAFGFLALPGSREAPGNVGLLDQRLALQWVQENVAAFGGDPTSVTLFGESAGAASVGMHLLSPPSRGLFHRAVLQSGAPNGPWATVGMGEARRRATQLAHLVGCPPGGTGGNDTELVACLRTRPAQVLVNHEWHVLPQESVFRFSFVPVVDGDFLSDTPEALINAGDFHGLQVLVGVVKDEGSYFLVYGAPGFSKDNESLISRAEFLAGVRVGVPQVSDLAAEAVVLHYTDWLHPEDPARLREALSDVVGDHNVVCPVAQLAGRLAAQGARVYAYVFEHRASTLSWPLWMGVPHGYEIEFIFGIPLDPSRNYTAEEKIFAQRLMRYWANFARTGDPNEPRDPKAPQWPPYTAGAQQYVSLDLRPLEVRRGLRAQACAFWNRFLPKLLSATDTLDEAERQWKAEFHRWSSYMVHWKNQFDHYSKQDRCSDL
UniProt P15390, whole entry: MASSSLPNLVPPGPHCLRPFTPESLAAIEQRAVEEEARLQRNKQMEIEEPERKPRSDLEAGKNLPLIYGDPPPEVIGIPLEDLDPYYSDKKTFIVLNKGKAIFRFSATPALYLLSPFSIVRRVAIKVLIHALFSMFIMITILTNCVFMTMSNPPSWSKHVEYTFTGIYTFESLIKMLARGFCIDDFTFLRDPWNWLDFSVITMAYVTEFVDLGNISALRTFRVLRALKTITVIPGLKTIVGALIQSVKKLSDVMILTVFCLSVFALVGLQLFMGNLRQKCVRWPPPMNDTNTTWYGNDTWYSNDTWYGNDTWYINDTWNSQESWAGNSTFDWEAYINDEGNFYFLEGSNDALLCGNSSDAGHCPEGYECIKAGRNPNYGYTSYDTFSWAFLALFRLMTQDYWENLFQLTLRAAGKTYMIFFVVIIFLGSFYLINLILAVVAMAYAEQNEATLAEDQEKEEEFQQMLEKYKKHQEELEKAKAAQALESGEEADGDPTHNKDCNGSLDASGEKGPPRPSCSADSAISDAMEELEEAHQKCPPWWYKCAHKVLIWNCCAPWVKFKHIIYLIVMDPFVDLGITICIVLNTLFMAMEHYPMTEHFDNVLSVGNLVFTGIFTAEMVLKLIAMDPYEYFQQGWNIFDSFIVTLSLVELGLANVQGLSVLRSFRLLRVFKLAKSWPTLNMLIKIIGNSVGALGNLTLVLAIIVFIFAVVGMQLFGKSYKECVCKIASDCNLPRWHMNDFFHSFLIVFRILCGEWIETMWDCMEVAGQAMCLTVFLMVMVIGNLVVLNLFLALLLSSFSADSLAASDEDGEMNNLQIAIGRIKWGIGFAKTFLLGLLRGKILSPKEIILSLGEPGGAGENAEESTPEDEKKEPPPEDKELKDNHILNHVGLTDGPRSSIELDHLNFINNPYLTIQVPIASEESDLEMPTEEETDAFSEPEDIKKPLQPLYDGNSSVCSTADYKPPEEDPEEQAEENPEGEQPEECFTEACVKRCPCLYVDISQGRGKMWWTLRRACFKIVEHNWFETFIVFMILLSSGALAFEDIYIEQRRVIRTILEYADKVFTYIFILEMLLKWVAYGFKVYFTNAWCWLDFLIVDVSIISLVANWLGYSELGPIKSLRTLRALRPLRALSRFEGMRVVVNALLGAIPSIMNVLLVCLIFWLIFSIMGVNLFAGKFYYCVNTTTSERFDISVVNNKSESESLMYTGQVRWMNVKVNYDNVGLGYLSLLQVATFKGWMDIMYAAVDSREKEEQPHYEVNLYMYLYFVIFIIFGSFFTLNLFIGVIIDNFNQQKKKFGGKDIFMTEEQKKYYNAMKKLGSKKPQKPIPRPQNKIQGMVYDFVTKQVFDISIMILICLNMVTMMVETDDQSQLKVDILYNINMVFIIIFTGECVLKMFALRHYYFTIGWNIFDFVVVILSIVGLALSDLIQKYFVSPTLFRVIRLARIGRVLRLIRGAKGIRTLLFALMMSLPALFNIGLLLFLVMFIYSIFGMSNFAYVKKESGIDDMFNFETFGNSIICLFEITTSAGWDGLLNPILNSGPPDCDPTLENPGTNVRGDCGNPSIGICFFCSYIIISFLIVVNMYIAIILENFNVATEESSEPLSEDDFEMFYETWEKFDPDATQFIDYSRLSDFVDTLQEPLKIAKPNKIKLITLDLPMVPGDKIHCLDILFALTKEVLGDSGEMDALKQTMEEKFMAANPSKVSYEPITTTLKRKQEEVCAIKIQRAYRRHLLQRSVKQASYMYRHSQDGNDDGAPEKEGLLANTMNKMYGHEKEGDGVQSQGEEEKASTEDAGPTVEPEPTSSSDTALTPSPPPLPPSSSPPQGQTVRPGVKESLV
UniProt O42275, whole entry, looked up: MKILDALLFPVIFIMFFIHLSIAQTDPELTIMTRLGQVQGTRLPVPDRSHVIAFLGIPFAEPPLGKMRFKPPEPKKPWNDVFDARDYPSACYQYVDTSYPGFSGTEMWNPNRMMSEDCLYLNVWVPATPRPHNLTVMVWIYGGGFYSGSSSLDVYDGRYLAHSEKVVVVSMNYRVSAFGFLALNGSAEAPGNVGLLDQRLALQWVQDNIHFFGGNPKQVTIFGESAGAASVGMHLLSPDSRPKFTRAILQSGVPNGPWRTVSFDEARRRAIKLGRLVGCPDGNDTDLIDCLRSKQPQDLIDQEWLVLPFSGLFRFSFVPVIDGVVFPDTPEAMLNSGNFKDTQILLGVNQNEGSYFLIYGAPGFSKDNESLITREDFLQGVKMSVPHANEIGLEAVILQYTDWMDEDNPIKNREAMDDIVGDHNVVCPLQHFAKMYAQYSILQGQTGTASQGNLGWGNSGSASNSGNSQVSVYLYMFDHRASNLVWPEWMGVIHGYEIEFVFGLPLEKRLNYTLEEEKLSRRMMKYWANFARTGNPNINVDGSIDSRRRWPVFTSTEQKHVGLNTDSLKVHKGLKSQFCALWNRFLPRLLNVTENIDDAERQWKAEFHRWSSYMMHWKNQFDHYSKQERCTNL
UniProt Q9Y6W6, 321-464 limits assumed: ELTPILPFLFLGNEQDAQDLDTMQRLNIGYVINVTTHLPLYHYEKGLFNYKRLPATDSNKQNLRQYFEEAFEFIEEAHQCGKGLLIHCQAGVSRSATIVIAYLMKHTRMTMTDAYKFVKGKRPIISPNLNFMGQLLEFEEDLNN
UniProt P08510, 1-655 with tags or gaps DEL6-46: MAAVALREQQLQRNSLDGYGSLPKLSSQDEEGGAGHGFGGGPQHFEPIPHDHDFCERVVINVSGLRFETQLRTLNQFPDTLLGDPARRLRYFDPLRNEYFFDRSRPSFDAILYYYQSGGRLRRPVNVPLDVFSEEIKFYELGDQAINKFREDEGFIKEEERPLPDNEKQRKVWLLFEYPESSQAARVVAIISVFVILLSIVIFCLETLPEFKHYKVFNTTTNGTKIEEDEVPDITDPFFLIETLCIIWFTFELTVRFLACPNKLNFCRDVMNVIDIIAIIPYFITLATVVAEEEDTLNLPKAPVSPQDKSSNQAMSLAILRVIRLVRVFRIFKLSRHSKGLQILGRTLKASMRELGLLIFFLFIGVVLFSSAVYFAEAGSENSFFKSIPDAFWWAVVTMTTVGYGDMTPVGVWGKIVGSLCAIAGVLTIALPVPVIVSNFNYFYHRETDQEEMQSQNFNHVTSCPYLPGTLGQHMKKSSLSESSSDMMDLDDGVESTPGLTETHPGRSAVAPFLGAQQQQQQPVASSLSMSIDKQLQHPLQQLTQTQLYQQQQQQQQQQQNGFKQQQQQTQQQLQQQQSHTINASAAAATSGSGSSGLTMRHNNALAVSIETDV
UniProt P08104, whole entry: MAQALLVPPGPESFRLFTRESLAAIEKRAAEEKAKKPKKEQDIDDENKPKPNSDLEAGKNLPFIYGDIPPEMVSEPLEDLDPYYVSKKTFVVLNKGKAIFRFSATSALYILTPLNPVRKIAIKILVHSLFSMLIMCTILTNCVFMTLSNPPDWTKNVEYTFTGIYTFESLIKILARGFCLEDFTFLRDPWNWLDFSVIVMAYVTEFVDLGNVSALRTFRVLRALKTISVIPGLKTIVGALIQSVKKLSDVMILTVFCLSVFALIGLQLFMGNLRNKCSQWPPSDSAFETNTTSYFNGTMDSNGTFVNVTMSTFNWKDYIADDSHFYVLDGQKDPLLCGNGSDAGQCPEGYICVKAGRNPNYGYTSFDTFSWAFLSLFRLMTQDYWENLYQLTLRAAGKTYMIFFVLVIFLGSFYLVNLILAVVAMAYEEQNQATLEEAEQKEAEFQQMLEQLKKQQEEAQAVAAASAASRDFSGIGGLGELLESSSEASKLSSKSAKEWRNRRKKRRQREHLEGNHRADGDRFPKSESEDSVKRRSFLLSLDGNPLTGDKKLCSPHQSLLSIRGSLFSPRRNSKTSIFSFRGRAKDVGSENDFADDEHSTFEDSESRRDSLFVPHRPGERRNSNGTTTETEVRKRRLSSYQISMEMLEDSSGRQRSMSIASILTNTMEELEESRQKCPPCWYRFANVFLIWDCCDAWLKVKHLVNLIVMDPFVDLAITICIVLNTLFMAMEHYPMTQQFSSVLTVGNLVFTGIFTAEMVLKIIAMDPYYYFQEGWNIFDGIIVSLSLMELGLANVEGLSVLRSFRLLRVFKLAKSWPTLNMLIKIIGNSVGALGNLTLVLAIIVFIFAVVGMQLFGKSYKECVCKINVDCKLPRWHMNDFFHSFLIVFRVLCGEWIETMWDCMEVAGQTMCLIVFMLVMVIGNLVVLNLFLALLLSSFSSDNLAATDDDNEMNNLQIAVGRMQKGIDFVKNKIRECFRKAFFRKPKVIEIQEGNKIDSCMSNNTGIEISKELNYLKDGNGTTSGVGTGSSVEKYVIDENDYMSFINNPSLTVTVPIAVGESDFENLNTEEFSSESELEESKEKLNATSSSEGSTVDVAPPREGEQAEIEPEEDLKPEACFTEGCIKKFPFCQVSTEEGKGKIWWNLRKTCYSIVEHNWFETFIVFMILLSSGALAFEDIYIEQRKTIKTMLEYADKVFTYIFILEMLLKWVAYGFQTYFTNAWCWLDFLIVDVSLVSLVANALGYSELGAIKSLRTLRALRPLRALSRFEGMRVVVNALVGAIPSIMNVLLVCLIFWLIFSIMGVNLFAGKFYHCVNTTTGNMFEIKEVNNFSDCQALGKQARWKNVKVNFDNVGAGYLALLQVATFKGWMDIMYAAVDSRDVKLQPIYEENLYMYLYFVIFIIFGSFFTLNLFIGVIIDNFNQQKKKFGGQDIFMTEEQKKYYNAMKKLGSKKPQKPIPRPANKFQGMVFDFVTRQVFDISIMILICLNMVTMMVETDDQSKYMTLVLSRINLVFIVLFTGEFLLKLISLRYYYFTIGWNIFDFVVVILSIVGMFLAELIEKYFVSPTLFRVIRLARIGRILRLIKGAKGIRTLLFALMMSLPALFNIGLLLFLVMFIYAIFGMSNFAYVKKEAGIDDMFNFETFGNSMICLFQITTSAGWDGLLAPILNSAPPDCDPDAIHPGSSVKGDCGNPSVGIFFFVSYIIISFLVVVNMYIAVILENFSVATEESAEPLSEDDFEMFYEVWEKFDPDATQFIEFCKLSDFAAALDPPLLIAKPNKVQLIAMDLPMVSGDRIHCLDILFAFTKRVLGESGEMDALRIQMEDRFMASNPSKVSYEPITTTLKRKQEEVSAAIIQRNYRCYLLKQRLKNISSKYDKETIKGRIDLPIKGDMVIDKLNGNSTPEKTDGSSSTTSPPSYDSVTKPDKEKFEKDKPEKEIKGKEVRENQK
UniProt P26045, 646-901 limits assumed: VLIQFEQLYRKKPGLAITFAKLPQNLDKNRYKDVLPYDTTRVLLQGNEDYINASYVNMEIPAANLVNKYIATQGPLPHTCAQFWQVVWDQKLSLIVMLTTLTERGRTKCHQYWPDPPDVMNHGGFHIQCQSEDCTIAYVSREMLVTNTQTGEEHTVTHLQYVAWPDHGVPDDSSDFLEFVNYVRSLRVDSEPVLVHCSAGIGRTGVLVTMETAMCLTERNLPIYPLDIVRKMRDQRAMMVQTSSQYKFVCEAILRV

SMILES | target | test | test system | conditions | scale | endpoint | result
CCN(CC)Cc1cc(N)ccc1O | Acetylcholinesterase, VX-inhibited (ACHE, Homo sapiens, UniProt P22303) | enzyme reactivation, reactivator | VX | concentration not given | – | reactivation rate kr | 0.5 ± 0.2 min⁻¹
O=C(O)C(O)=CC(=O)C1(Cc2ccc(Cl)cc2)CCN(C(=O)OCc2ccccc2)CC1 | Replicase polyprotein 1ab, nsp14 with nsp10 (rep, Severe acute respiratory syndrome coronavirus 2, UniProt P0DTD1) | exonuclease activity, inhibitor | – | 20 µM | – | inhibition | 11%
O=C1Cc2ccccc2N1C1CCN([C@@H]2CC[C@H]3CCCc4cccc2c43)CC1 | OPRL1 | G protein activation, GTPγS binding | CHO membranes | unit not given | relative to: basal binding | Emax | 4.95 ± 0.77
COC(=O)CN1CN(c2ccccc2)C2(CCN(Cc3cccc4ccccc34)CC2)C1=O | OPRL1 | GIRK channel activation | AtT20 expressing OPRL1 | – | relative to: N/OFQ | potency loss | ~40 fold
N[C@@H](Cc1ccc(OP(=O)(O)O)cc1)C(=O)O | Secreted effector protein C403A/D356A | surface plasmon resonance | – | immobilized protein | – | ΔG | -2.73 kcal/mol
NC[C@@H](CC[C@H](N)C(=O)O)C[C@H]1O[C@@H](n2cnc3c(N)ncnc32)[C@H](O)[C@@H]1O | Replicase polyprotein 1ab, nsp16 with nsp10 (rep, Middle East respiratory syndrome-related coronavirus, UniProt K9N7C7) | methyltransferase activity, inhibitor, radiometric nsp10-nsp16 | – | – | – | Hill slope | -1.1
O=C(Nc1cccc(Cl)c1)Nc1nonc1NC(=O)Nc1cccc(Cl)c1 | Replicase polyprotein 1ab, nsp4-nsp5-nsp6 precursor (rep, Severe acute respiratory syndrome coronavirus 2, UniProt P0DTD1) | reporter gene, cell-based primary screen | – | – | – | luciferase signal | 10.8%
CN1C(=O)CCc2cc(C(=O)NCC=CS(C)(=O)=O)ccc21 | Polyprotein P1234, nsP2 protease (Chikungunya virus, UniProt Q5XXP4) | time-dependent inhibition | – | – | – | kinact | 0.0024 ± 0.0003 s⁻¹
CN1CC(=O)N[C@@H](Cc2c[nH]c3ccccc23)C(=O)N[C@H]2CSSC[C@H](N)C(=O)N[C@H]3CSSC[C@H](NC(=O)[C@H](CCCNC(=N)N)NC(=O)[C@H](CO)NC(=O)[C@H](Cc4c[nH]cn4)NC(=O)[C@H](CC(=O)O)NC(=O)[C@H](CCCNC(=N)N)NC2=O)C(=O)N[C@H](C(N)=O)CSSC[C@H](NC(=O)[C@H](CC(N)=O)NC3=O)C(=O)N[C@@H](CO)C(=O)N[C@@H](CO)C1=O | Sodium channel protein type 2 subunit alpha (Scn2a, Rattus norvegicus, UniProt P04775) | sodium current, blocker, two-electrode voltage clamp | Xenopus oocytes | 10 µM | – | kobs | 1.1 ± 0.5 min⁻¹
C[C@H](N)C(=O)N[C@H]1CSSC[C@@H]2NC(=O)[C@H](CCCNC(=N)N)NC(=O)[C@H](CO)NC(=O)[C@H](Cc3c[nH]cn3)NC(=O)[C@H](CC(=O)O)NC(=O)[C@H](CCCNC(=N)N)NC(=O)[C@H](C)NC(=O)[C@H](Cc3c[nH]c4ccccc34)NC(=O)[C@H](CCCCN)NC(=O)[C@H](CO)NC(=O)[C@H](CO)NC(=O)[C@H](CSSC[C@@H](C(N)=O)NC2=O)NC(=O)[C@H](CC(N)=O)NC1=O | Sodium channel protein type 4 subunit alpha (Scn4a, Rattus norvegicus, UniProt P15390) | sodium current, blocker, two-electrode voltage clamp | Xenopus oocytes | 1 µM, 20 min, steady state | – | block | 85 ± 2%
O=C(C1CCNC1)N1CCc2c(F)cc(F)cc21 (centres unmarked) | Acetylcholinesterase (ache, Electrophorus electricus, UniProt O42275) | enzyme activity, inhibitor, Ellman | – | 120 µM, with: acetylthiocholine iodide | – | Vmax | 0.082 absorbance units/min
CC(C)[C@H]1CC[C@@H](N2CCC3(CC2)C(=O)NCN3c2ccccc2)CC1 | OPRL1 | β-arrestin 2 recruitment, BRET | HEK293 | concentration not given, unit not given | relative to: compound Emax over N/OFQ Emax | intrinsic activity | 0.43
CC(=O)N[C@@H](Cc1c[nH]cn1)C(=O)N[C@H](C(=O)NCC(=O)N[C@@H](Cc1ccccc1)C(=O)N[C@@H](CC(C)C)C(=O)N[C@H](C(=O)N[C@@H](CCC(=O)O)C(=O)N[C@@H](Cc1cc(=O)oc2cc(OP(=O)(O)O)ccc12)C(=O)N[C@H](C(=O)N[C@@H](C)C(=O)N[C@H](C(=O)N[C@@H](CCCNC(=N)N)C(=O)N[C@@H](Cc1c[nH]c2ccccc12)C(N)=O)[C@@H](C)O)C(C)C)[C@@H](C)OP(=O)(O)O)[C@@H](C)O | Dual specificity protein phosphatase 10 (Homo sapiens, UniProt Q9Y6W6) | substrate | – | pH 6, ERK1/2 activation-loop peptide | – | kcat | 0.24 s⁻¹
CNC(=O)CC1C(=O)N(C2CCN([C@H]3CC[C@@H](C(C)C)CC3)CC2)c2ccccc21 (some centres unmarked) | OPRL1 | G protein activation, GTPγS binding | CHO membranes | unit not given | relative to: basal binding | Emax | 5.37 ± 0.68
Nc1ncnc2c1ncn2[C@@H]1O[C@H](COP(=O)(O)OP(=O)(O)OP(=O)(O)O)[C@@H](O)[C@H]1O | Genome polyprotein, RNA polymerase 3D (Human poliovirus 1 Mahoney, UniProt P03300, K2107H) | substrate | – | pH 7.5 | – | kpol | 4.9 ± 0.4 s⁻¹
CC[C@H](C)[C@@H]1NC(=O)[C@H](CCCNC(=N)N)NC(=O)[C@@H](N)CSSC[C@@H]2NC(=O)[C@@H]3CSSC[C@@H](C(=O)N[C@H](C(=O)O)C(C)C)NC(=O)[C@H](CCCCN)NC(=O)[C@H](CC(N)=O)NC(=O)[C@H](Cc4ccccc4)NC(=O)[C@H](CCCNC(=N)N)NC(=O)[C@H](CC(N)=O)NC(=O)[C@H](CSSC[C@H](NC(=O)[C@H](CCCCN)NC(=O)[C@H](CCC(N)=O)NC(=O)[C@H](CC(N)=O)NC(=O)[C@@H]4C[C@@H](O)CN4C1=O)C(=O)N[C@@H](Cc1ccccc1)C(=O)N[C@@H](CCC(N)=O)C(=O)N[C@@H](Cc1c[nH]cn1)C(=O)N[C@@H](CC(C)C)C(=O)N[C@@H](CC(=O)O)C(=O)N[C@@H](CC(=O)O)C(=O)N3)NC(=O)[C@H](CCCCN)NC(=O)[C@H](CCCNC(=N)N)NC(=O)[C@H](CO)NC2=O | Sh (Drosophila melanogaster, UniProt P08510, del6-46) | potassium current, outside-out patch clamp | – | 500 nM, chronic application, zero voltage, internal K 15, with: 1 mM TEA | – | koff | 10 ± 1 s⁻¹
CC(C)[C@H](N)C(=O)NCC(=O)N[C@@H](CCC(=O)O)C(=O)N[C@@H](CCCNC(=N)N)C(=O)N[C@@H](C)C(=O)N[C@H]1CSSC[C@@H]2NC(=O)[C@H](CCCNC(=N)N)NC(=O)[C@H](CO)NC(=O)[C@H](Cc3c[nH]cn3)NC(=O)[C@H](CC(=O)O)NC(=O)[C@H](CCCNC(=N)N)NC(=O)[C@H](C)NC(=O)[C@H](Cc3c[nH]c4ccccc34)NC(=O)[C@H](CCCNC(=N)N)NC(=O)CNC(=O)[C@H](CSSC[C@@H](C(N)=O)NC2=O)NC(=O)CNC(=O)[C@H](CCCNC(=N)N)NC(=O)[C@H](CCCCN)NC(=O)CNC(=O)[C@H](CC(N)=O)NC(=O)[C@H](CCCCN)NC1=O | Sodium channel protein type 3 subunit alpha (Scn3a, Rattus norvegicus, UniProt P08104) | sodium current, two-electrode voltage clamp | – | – | relative to: analogue over wild-type µ-conotoxin BuIIIB | Kd ratio | 79
Cc1ccc(S(=O)(=O)Nc2cccc(C(=O)NC3CCN(c4ncnc5[nH]cnc45)CC3)c2)cc1 | Replicase polyprotein 1ab, nsp14 ExoN with nsp10 (rep, Severe acute respiratory syndrome coronavirus 2, UniProt P0DTD1) | ExoN activity | – | 12.5 µM | – | inhibition | 10.5%
CC(=O)N[C@@H](Cc1c[nH]cn1)C(=O)N[C@@H](CC(=O)O)C(=O)NCC(=O)N[C@@H](CC(C)C)C(=O)N[C@@H](Cc1ccc(OP(=O)(O)O)cc1)C(=O)N[C@@H](CCC(N)=O)C(=O)NCC(=O)N[C@@H](CC(C)C)C(=O)N[C@@H](CO)C(=O)N[C@H](C(=O)N[C@@H](C)C(=O)N[C@H](C(=O)N[C@@H](CCCCN)C(=O)N[C@@H](CC(=O)O)C(=O)N[C@H](C(=O)N[C@@H](Cc1cc(=O)oc2cc(OP(=O)(O)O)ccc12)C(=O)N[C@@H](CC(=O)O)C(=O)N[C@@H](C)C(=O)N[C@@H](CC(C)C)C(=O)N[C@@H](Cc1c[nH]cn1)C(N)=O)[C@@H](C)O)[C@@H](C)O)[C@@H](C)O | Tyrosine-protein phosphatase non-receptor type 3 (PTPN3, Homo sapiens, UniProt P26045) | substrate | – | pH 6, TCR zeta-chain ITAM peptide | – | kcat | 0.69 s⁻¹
CC[C@H](C)[C@H](NC(=O)[C@H](CC(C)C)NC(=O)[C@H](Cc1ccc(OP(=O)(O)O)cc1)NC(=O)[C@H](CCC(=O)O)NC(=O)[C@H](CC(=O)O)NC(=O)[C@H](C)NC(=O)[C@H](CC(=O)O)NC(=O)[C@@H](NC(=O)[C@H](CC(C)C)NC(=O)CCCC[C@@H]1SC[C@@H]2NC(=O)N[C@@H]21)C(C)C)C(=O)N1CCC[C@H]1C(=O)N[C@@H](CCC(N)=O)C(=O)N[C@@H](CCC(N)=O)C(=O)NCC(=O)O | Secreted effector protein C403A/D356A | surface plasmon resonance | – | immobilized protein | – | kon | 88.8 M⁻¹ s⁻¹
